Experimental data gathered from unrelated publications.
Each line is one published result; not all experiments were run side by side.
Target: Inhibitor of nuclear factor kappa-B kinase subunit alpha (CHUK, Homo sapiens, UniProt O15111)
Sequence (O15111 1-745, as in one of the studies): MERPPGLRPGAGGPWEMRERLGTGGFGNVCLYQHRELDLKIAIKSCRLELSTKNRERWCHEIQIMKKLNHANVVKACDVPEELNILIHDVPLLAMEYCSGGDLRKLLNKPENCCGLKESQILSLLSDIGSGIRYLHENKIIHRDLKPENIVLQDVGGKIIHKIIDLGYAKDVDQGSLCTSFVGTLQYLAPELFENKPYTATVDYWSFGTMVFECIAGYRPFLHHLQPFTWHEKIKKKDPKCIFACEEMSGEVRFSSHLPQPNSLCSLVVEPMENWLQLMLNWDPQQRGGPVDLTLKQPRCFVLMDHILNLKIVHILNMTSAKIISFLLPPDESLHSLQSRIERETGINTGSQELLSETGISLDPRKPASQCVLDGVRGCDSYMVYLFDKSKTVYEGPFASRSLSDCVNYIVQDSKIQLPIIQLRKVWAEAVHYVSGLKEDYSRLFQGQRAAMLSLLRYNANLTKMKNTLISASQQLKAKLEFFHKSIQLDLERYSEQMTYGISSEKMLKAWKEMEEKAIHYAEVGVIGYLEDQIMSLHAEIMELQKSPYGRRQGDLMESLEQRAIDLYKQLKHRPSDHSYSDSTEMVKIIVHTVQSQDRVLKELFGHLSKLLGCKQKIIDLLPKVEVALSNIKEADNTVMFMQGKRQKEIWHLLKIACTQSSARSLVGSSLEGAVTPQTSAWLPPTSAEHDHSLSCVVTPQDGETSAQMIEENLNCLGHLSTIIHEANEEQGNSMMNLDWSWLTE

The remaining activity of `COc1cc(F)ccc1-c1ncnc(Nc2cccc(C[S@](C)(=N)=O)c2)n1` is reported as 105% (kinase activity; 10 µM, together with: 10 µM ATP).
`COc1cc(-c2cncc3c2CN(C)Cc2cc(N4CCNCC4)ccc2-3)cc(OC)c1OC` gave a remaining activity of 120% (kinase activity; 1 µM, human enzyme, together with: ATP 10 µM; baseline: DMSO control).
`Cc1cc(Nc2cc(N3CCN(C)CC3)nc(Sc3ccc(NC(=O)C4CC4)cc3)n2)[nH]n1` gave a remaining activity of 105% (kinase activity, KinaseProfiler; 0.03 µM, species human; baseline: control).
For `Cn1cc(-c2cnc3ccc(NC(=O)Nc4ccc(F)c(Br)c4)cc3n2)cn1`, the inhibition was 1.3% (kinase binding, KiNativ profiling, measured: Lys2 peptide; PANC-1 lysate; 7.5 µM).
The remaining binding of `C=CC(=O)N1CCC(COCC(=O)N2CCN(c3nc(-c4cnc(N)nc4C(F)F)nc(N4CCOC[C@@H]4C)n3)CC2)CC1` is reported as 76% (KINOMEscan; 1 µM).
`CNc1ncc2c(/C=C/C(=O)N3CCC(OC)CC3)nn(Cc3cccc(C(F)(F)F)c3)c2n1` gave a remaining activity of 95% (kinase activity, inhibitor; 1 µM; baseline: untreated control).
`CN1CC(Oc2cnc(C#N)cc2-c2ccn3nc(NC(=O)C4CC4)cc3c2)C1` gave an inhibition of -2% (inhibitor, KinaseProfiler panel; 1 µM).
For `CNc1cc(Oc2cc(C(=O)Nc3cc(N4CCN(C)CC4)cc(C(F)(F)F)c3)ccc2C)ncn1`, the inhibition was -10.9% (kinase activity; 1 µM).
